# Published values gathered from unrelated publications.
# Lines come from different studies, so protocols differ.
# fbf-2: fbf-2 164-575 (Caenorhabditis elegans, UniProt Q09312)
# Sequence of UniProt Q09312 (whole entry, looked up): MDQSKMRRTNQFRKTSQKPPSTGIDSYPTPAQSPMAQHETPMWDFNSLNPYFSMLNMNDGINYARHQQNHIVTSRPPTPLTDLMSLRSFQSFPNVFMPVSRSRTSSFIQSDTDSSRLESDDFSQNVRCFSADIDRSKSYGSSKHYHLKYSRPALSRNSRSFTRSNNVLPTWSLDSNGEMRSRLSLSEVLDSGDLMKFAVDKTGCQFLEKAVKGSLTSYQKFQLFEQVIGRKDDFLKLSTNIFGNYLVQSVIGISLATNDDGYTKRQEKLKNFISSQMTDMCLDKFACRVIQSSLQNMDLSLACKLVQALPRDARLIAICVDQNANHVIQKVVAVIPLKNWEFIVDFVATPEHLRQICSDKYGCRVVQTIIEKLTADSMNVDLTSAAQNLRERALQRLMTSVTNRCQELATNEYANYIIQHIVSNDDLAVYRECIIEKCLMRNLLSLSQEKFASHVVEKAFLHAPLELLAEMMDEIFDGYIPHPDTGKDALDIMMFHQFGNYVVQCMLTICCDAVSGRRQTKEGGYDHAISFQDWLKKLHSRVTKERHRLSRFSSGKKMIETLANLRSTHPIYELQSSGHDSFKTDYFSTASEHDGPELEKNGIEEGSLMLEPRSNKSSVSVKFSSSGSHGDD
# B1: FAM126B 1-308 (Homo sapiens, UniProt Q8IXS8); chain MLGTDRCVVEEWLSEFKALPDTQITSYAATLHRKKTLVPALYKVIQDSNNELLEPVCHQLFELYRSSEVRLKRFTLQFLPELMWVYLRLTVSRDRQSNGCIEALLLGIYNLEIADKDGNNKVLSFTIPSLSKPSIYHEPSTIGSMALTEGALCQHDLIRVVYSDLHPQRETFTAQNRFEVLSFLMLCYNSAIVYMPASSYQSLCRMGSRVCVSGFPRQHEKHWKELCGRIVLDPEFMVQLLTGVYYAMYNGQWDLGQEVLDDIIYRAQLELFSQPLLVANAMKNSLPFDAPDSTQEGQKVLKVEVTPT
# B2: HY5 (Arabidopsis thaliana, UniProt O24646); sequence looked up; chain MQEQATSSLAASSLPSSSERSSSSAPHLEIKEGIESDEEIRRVPEFGGEAVGKETSGRESGSATGQERTQATVGESQRKRGRTPAEKENKRLKRLLRNRVSAQQARERKKAYLSELENRVKDLENKNSELEERLSTLQNENQMLRHILKNTTGNKRGGGGGSNADASL
# B3: PSMG3 1-122 (Homo sapiens, UniProt Q9BT73); chain MEDTPLVISKQKTEVVCGVPTQVVCTAFSSHILVVVTQFGKMGTLVSLEPSSVASDVSKPVLTTKVLLGQDEPLIHVFAKNLVAFVSQEAGNRAVLLAVAVKDKSMEGLKALREVIRVCQVW
# B4: NUB1 (Homo sapiens); chain GPGSMAQKKYLQAKLTQFLREDRIQLWKPPYTDENKKVGLALKDLAKQYSDRLECCENEVEKVIEEIRCKAIERGTGNDNYRTTGIATIEVFLPPRLKKDRKNLLETRLHITGRELRSKIAETFGLQENYIKIVINKKQLQLGKTLEEQGVAHNVKAMVLELKQSEEDARKNFQLEEEEQNEAKLKEKQIQRTKRGLEILAKRAAETVVDPEMTPYLDIANQTGRSIRIPPSERKALMLAMGYHEKGRAFLKRKEYGIALPCLLDADKYFCECCRELLDTVDNYAVLQLDIVWCYFRLEQLECLDDAEKKLNLAQKCFKNCYGENHQRLVHIKGNCGKEKVLFLRLYLLQGIRNYHSGNDVEAYEYLNKARQLFKELYIDPSKVDNLLQLGFTAQEARLGLRACDGNVDHAATHITNRREELAQIRKEEKEKKRRRLENIRFLKGMGYSTHAAQQILLSNPQMWWLNDSNPETDNRQESPSQENIDRLVYMGFDALVAEAALRVFRGNVQLAAQTLAHNGGSLPPELPLSPEDSLSPPATSPSDSAGTSSASTDEDMETEAVNEILEDIPEHEEDYLDSTLEDEEIIIAEYLSYVENRKSATKKN
# B5: SSPN (Oryctolagus cuniculus, UniProt P82352); sequence looked up; chain MGKDRQPRGQQRQGDAAGPDDPGPKKGAGTREQRGEEEAQTCCGCRFPLLLALLQLALGVAVTVVGFLMASVSSSLLVRATPYWAGIIVCVVAYLGLFMLCVSYQVDERTCIQFSMKLLYFVLSALGLVVCVLAVAFAAHHYSLLTHLTCENAPDSCQCKLPSSEPLSRTFVYRDVTDCTSITGTFQVFLLVQMVLNLVCGLVCLVACFVMWKHRYQVFYVGVRMCPLSASEGQQQKV
# B6: TEFM 51-360 (Homo sapiens, UniProt Q96QE5); sequence looked up; chain DENAKEPENALDKLFSSEQQASILHVLNTASTKELEAFRLLRGRRSINIVEHRENFGPFQNLESLMNVPLFKYKSTVQVCNSILCPKTGREKRKSPENRFLRKLLKPDIERERLKAVNSIISIVFGTRRIAWAHLDRKLTVLDWQQSDRWSLMRGIYSSSVYLEEISSIISKMPKADFYVLEKTGLSIQNSSLFPILLHFHIMEAMLYALLNKTFAQDGQHQVLSMNRNAVGKHFELMIGDSRTSGKELVKQFLFDSILKADPRVFFPSDKIVHYRQMFLSTELQRVEELYDSLLQAIAFYELAVFDSQP
# Sequence of UniProt Q9Y244 (whole entry, looked up): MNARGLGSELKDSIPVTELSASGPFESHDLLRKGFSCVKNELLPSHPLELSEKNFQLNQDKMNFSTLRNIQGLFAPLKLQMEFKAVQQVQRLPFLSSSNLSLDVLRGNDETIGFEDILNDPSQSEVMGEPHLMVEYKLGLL
# Sequence of UniProt Q9ULT0 (whole entry, looked up): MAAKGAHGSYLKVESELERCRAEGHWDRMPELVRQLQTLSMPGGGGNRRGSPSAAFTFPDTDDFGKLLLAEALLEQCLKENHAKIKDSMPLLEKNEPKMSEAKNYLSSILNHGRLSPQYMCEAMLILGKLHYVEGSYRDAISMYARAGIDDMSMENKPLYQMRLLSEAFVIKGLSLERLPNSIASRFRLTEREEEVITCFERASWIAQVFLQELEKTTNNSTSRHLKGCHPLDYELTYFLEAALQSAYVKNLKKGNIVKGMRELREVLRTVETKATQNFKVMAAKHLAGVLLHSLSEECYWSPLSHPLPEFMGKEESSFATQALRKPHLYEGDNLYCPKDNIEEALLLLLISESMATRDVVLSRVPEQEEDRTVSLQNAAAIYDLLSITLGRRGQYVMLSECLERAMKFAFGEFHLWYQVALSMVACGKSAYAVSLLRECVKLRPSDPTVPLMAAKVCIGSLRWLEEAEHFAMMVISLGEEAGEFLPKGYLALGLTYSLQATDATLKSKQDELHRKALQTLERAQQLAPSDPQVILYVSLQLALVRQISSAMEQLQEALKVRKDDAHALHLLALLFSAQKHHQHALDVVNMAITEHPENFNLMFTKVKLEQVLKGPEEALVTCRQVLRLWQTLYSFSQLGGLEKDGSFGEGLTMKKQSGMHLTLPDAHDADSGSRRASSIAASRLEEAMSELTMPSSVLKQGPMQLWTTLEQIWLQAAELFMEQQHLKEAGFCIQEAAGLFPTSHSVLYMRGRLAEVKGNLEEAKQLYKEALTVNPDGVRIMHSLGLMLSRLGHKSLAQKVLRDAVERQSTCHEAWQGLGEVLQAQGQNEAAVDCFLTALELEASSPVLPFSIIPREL
# Sequence of UniProt Q5SXM2 (whole entry, looked up): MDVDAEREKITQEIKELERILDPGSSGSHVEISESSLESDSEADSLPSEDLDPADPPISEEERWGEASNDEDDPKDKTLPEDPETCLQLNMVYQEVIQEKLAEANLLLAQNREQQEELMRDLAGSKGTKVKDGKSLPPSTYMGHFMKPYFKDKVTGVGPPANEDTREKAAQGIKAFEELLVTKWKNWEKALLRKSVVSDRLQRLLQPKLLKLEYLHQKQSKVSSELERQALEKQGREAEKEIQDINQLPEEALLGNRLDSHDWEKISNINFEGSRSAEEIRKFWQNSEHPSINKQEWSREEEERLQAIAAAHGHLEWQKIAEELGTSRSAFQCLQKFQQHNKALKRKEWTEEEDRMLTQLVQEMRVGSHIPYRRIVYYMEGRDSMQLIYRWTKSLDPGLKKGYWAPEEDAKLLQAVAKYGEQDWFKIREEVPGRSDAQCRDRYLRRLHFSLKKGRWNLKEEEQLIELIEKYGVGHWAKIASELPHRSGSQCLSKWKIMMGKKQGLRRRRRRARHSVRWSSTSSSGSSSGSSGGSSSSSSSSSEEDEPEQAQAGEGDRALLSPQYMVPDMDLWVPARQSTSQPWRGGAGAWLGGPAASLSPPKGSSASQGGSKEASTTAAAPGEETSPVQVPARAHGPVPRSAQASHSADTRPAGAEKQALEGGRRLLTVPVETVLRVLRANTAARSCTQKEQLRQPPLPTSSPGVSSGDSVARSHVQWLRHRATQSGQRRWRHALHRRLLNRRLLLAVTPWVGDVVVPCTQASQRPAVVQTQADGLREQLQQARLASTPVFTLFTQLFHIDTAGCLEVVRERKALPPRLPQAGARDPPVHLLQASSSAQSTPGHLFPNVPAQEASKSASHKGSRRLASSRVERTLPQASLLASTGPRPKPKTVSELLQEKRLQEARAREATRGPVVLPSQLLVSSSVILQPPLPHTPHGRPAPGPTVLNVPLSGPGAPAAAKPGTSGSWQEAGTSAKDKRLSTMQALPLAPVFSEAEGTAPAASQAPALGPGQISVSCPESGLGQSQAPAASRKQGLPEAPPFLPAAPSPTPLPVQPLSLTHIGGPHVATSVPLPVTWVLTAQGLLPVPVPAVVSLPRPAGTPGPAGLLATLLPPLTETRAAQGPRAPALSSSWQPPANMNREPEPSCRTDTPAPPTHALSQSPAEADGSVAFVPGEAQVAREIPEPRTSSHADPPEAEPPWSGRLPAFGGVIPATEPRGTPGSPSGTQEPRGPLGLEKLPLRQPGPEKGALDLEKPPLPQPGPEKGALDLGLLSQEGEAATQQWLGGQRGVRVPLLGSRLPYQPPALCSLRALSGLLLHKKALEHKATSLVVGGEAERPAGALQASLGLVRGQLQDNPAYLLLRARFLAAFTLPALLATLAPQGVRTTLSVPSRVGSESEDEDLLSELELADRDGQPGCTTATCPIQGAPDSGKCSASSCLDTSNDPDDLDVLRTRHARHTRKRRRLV
# Sequence of UniProt P30043 (whole entry, looked up): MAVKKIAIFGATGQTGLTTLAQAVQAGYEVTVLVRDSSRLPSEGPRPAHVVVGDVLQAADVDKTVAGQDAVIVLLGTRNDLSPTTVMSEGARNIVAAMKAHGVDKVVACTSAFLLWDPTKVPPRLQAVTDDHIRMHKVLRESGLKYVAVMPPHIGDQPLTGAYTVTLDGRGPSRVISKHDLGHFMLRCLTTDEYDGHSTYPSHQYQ
# Sequence of UniProt Q9LET0 (whole entry, unmodified, looked up): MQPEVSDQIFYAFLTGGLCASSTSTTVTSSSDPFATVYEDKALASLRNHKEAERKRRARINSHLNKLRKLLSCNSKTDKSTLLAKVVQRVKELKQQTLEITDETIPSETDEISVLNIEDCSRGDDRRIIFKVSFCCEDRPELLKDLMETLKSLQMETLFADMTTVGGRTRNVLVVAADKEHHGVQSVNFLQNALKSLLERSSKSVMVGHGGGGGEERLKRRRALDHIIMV
# Sequence of UniProt Q92966 (whole entry, looked up): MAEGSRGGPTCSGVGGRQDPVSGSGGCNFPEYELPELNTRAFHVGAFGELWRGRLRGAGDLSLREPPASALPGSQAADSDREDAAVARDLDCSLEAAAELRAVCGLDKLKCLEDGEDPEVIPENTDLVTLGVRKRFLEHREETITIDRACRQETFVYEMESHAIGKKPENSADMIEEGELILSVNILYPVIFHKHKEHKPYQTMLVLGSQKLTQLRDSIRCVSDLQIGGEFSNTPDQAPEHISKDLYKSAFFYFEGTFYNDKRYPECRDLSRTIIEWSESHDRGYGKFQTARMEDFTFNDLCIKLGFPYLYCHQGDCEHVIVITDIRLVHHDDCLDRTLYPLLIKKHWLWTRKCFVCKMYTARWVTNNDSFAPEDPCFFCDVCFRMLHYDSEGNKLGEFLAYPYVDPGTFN
# Sequence of UniProt Q28685 (whole entry, looked up): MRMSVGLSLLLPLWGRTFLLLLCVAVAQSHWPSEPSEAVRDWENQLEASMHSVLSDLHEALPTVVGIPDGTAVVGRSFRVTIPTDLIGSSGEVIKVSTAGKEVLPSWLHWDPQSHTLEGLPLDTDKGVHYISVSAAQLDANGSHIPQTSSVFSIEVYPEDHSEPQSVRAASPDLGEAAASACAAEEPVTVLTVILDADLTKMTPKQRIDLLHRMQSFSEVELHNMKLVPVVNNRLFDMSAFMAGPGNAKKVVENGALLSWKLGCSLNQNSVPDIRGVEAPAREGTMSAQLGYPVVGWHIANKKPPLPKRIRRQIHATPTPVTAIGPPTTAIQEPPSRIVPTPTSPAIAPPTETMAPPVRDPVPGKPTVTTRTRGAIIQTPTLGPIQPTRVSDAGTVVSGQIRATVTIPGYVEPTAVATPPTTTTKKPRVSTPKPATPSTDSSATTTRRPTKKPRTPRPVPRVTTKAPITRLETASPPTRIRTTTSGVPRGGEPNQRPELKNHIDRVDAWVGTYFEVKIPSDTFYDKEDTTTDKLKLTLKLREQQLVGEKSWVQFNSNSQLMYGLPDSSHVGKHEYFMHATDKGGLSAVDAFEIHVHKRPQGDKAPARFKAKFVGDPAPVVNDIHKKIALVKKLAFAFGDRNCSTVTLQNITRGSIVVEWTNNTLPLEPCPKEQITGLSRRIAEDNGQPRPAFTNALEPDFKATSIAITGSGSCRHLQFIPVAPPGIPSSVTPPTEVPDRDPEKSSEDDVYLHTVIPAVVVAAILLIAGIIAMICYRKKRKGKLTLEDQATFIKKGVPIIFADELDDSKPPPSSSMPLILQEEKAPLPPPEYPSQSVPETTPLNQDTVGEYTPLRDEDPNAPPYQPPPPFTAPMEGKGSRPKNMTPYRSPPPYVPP
Molecule,target or system,assay,test system,conditions,scale,quantity,result
"MEELQDDYEDMMEENLEQEEYEDPDIPESQMEEPAAHDTEATATDYHTTSHPGTHK (SLC4A1 1-56 (Homo sapiens, UniProt P02730); sequence looked up)","BLVRB (Homo sapiens, UniProt P30043)",NMR titration,peptide,,,binding,binds
"SNAPC3 (Homo sapiens, UniProt Q92966)","SNAPC4 (Homo sapiens, UniProt Q5SXM2)",cryo-EM,,,,binding,binds
B1 (FAM126B 1-308),TTC7A (UniProt Q9ULT0),SEC,,,,binding,binds
"SKKNNAASELANPYSSYVSQIRKHKRVSPNAAPR (NUP60 285-318 (Saccharomyces cerevisiae, UniProt P39705); sequence looked up)",NUP85/SEH1 Nup85 1-564 (Saccharomyces cerevisiae),pull-down,peptide,,,binding,binds
MQLMPFGCLL,"HLA class I histocompatibility antigen, A alpha chain, allele A*24:02 (Homo sapiens, UniProt P04439)",conformational ELISA,peptide,concentration not given,"reference: positive control peptide, direction not given",binding score,6.9%
B2 (HY5),"bHLH107 S62A/S72A (Arabidopsis, UniProt Q9LET0)",pull-down,,,,binding,binds
B3 (PSMG3 1-122),"POMP (Homo sapiens, UniProt Q9Y244)",cryo-EM,,,,binding,binds
GPDAVIIGMTKIPVIENPQYFGI (NTRK2 residues 493-515; pY512),"FRS2 8-122 (Homo sapiens, UniProt Q8WU20)",NMR,peptide,,,binding,binds
"NGVTKTILEPRARVEKDYGKISLEHKTKYSNEYGDEEKSAENDTSSLGSR (gld-3 860-909 (Caenorhabditis elegans, UniProt Q95ZK7); sequence looked up)",fbf-2,pull-down,,,,binding,binds
"NUP62 (Homo sapiens, UniProt P37198)","FUS (Homo sapiens, UniProt P35637)",co-IP,,,,binding,binds
B4 (NUB1),"PSMD2 (Homo sapiens, UniProt Q13200)",cryo-EM,,,,binding,binds
TASPAKETSF,human MAGI1-3/6 PDZ construct (MBP fusion),automated holdup,"peptide, crude extract","concentration not given, corrected by standard peak, unit not given","reference: biotin control resin, higher = stronger binding",binding intensity,-0.0432
B5 (SSPN),"β-dystroglycan mature, N-linked glycans (Oryctolagus cuniculus, UniProt Q28685)",cryo-EM structure,,,,binding,binds
Peginesatide,UT7/EPO,"phosphorylation, agonist, measured: phospho-STAT3",,10 min,,EC50,11.5 nM
GSGAGKETRV,human MAGI1-3/6 PDZ construct (MBP fusion),automated holdup,"peptide, purified PDZ protein","concentration not given, unit not given","reference: biotin control resin, higher = stronger binding",binding intensity,0.412
B6 (TEFM 51-360),"POLRMT 120-1230 E555A (Homo sapiens, UniProt O00411)",cryo-EM,,,,binding,binds
"NGVTKAILEPRARVEKDYGK (gld-3 860-879 T865A (Caenorhabditis elegans, UniProt Q95ZK7); sequence looked up)",fbf-2,fluorescence polarisation,peptide,,,binding,binds

# For quick reference, copied from above:
Molecule,target or system,assay,test system,conditions,scale,quantity,result
B2 (HY5),"bHLH107 S62A/S72A (Arabidopsis, UniProt Q9LET0)",pull-down,,,,binding,binds
B6 (TEFM 51-360),"POLRMT 120-1230 E555A (Homo sapiens, UniProt O00411)",cryo-EM,,,,binding,binds
